Assay results collected from several papers.
Each numbered part is a random draw from the data of one study; scales do not carry over between parts. Values joined by “and” are separate records of one study, mostly repeats; a detail may differ.
UniProt P49760, sequence (whole entry, looked up): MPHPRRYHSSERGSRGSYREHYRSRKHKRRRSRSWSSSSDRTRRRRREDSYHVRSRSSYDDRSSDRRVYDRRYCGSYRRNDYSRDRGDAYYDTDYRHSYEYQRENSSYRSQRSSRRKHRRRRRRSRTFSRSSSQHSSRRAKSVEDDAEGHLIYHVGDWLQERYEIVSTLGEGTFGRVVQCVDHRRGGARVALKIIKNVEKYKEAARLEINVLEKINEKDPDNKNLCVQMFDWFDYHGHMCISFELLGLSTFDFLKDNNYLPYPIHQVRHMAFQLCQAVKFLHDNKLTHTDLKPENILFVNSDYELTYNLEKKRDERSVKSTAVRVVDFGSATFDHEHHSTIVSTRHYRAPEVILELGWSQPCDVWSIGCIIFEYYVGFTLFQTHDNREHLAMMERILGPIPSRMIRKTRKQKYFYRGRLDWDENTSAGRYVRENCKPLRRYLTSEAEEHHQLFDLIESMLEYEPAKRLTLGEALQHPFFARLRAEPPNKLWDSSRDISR
UniProt Q99683, sequence (whole entry, looked up): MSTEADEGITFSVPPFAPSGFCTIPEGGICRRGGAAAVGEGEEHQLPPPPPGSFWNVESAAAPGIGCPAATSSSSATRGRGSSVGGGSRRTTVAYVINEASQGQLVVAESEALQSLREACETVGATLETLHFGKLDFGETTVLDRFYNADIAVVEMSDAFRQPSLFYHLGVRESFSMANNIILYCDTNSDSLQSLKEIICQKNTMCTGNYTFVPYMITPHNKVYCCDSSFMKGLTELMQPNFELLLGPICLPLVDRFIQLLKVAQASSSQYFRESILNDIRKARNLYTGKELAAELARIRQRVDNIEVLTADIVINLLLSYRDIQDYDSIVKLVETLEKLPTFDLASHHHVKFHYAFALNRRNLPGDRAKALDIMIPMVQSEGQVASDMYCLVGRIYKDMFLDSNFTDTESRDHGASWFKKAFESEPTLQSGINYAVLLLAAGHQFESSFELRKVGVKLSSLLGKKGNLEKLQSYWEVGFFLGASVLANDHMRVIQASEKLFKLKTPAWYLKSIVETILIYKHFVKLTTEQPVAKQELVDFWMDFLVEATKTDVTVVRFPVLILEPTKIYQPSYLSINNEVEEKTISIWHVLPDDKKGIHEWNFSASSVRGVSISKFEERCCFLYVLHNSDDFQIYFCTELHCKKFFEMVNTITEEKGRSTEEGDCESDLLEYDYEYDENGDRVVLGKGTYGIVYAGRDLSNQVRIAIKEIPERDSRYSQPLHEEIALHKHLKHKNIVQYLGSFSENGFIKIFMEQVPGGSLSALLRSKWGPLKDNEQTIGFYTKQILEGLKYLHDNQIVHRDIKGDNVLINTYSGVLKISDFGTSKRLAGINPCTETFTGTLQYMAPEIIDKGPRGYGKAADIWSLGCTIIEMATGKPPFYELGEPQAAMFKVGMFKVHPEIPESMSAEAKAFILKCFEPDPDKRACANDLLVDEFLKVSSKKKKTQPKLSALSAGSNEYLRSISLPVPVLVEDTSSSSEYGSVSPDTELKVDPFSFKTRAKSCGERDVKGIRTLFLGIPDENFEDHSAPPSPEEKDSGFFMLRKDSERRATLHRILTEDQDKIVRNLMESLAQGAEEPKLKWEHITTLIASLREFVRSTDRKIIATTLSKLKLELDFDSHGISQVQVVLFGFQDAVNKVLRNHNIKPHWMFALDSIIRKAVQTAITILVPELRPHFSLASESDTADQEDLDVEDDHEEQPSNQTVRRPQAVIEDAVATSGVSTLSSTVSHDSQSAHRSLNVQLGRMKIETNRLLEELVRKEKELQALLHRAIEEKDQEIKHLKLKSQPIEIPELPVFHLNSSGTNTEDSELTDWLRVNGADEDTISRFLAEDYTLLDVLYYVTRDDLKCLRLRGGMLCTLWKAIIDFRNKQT
UniProt Q14289, sequence (whole entry, looked up): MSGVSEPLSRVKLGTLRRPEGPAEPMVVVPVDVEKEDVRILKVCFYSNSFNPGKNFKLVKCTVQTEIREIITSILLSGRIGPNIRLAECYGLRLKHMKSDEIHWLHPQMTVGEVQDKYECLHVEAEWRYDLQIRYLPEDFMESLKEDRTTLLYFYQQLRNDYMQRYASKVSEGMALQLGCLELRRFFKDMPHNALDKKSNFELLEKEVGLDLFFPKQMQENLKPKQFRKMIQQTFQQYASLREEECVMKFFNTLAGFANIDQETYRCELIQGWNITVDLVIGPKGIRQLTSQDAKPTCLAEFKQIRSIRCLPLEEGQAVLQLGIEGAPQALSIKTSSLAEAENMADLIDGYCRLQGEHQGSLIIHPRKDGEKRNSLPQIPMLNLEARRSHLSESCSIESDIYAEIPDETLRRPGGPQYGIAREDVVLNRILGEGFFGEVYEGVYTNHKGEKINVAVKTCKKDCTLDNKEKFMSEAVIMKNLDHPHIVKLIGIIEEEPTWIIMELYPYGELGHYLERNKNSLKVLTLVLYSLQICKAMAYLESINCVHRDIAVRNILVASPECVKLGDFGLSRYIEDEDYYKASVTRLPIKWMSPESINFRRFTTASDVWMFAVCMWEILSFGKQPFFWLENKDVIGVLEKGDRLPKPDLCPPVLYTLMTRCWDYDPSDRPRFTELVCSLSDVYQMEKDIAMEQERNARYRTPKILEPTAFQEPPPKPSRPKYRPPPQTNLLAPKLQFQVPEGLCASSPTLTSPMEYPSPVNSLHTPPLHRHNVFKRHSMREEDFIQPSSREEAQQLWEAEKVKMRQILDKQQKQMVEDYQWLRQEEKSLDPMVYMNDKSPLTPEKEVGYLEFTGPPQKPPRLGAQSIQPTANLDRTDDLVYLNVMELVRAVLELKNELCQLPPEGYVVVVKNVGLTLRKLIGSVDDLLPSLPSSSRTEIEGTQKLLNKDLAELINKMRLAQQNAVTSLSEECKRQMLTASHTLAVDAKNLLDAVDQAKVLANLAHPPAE
UniProt Q9H422, sequence (whole entry, looked up): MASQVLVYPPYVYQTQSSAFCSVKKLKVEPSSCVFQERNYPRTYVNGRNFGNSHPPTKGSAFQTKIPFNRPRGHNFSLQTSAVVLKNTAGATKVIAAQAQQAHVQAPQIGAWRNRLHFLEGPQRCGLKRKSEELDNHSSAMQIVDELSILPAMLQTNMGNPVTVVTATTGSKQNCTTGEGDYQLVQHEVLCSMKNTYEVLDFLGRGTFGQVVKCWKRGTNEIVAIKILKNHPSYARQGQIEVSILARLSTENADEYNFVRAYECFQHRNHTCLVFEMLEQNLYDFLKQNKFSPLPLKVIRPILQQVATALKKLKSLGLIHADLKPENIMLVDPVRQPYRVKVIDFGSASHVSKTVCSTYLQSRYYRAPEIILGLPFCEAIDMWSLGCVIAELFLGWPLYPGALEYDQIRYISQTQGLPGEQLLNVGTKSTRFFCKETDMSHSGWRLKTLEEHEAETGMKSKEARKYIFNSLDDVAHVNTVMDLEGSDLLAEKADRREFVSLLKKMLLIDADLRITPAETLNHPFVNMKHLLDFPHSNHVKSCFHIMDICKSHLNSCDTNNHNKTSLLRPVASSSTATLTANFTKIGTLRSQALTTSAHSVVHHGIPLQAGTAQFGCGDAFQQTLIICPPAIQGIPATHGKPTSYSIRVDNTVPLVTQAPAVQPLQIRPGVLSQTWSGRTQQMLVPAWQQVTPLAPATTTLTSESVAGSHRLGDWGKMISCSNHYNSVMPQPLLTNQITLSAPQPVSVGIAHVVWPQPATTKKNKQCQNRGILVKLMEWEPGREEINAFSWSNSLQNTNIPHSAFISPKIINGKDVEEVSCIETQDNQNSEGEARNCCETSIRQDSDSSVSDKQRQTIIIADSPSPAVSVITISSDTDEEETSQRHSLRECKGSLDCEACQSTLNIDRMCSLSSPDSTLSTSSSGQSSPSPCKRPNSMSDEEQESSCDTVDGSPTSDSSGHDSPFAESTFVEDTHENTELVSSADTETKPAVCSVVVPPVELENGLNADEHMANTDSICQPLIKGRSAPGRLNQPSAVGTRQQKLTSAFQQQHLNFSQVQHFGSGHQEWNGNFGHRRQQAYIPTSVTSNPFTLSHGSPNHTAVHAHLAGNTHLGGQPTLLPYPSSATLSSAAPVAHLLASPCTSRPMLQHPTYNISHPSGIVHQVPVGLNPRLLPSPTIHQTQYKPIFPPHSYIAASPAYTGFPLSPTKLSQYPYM
UniProt P50613, sequence (whole entry, looked up): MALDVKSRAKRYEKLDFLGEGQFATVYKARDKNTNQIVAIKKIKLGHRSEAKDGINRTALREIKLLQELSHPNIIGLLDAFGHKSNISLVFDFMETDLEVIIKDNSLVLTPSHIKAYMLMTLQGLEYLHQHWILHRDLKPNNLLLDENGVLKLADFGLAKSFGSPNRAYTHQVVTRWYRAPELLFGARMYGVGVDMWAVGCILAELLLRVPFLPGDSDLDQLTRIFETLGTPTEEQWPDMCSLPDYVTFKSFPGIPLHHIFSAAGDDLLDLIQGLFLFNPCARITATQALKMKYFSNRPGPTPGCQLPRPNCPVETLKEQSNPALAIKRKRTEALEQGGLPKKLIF
UniProt Q8IU85, sequence (whole entry, looked up): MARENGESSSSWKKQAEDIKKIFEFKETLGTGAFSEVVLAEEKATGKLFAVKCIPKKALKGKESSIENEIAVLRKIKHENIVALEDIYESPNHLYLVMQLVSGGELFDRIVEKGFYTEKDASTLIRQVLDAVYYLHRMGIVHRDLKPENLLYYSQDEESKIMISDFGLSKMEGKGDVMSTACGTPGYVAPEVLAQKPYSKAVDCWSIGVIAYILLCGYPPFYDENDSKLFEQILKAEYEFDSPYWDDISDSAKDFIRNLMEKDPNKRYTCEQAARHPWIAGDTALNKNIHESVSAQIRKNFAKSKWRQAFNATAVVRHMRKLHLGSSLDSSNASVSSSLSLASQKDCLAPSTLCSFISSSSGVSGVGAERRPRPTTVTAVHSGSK

Series 1
SMILES: C[C@@H]1CN(c2cc(-c3nn(C)c4ccc(OC5(C)CC5)cc34)ncn2)C[C@H](C)O1
target	read-out	method	matrix	EC50
Dual specificity protein kinase CLK4 (CLK4, Homo sapiens, UniProt Q9HAZ1)	target engagement in cells	BRET		6.2 µM
Dual specificity protein kinase CLK2 (CLK2, Homo sapiens, UniProt P49760)	target engagement	NanoBRET	live cells	7.52 µM and 14.4 µM and 9.51 µM
Mitogen-activated protein kinase kinase kinase 5 (MAP3K5, Homo sapiens, UniProt Q99683)	target engagement in cells	BRET		4.1 µM

Series 2 — cell line: mouse MPNST tumor cells; method: high-content immunofluorescence imaging; measured: nuclear SOX9; concentration: 10 µM; time: 12 h; notes: mean of 2 replicates; reference: DMSO control; direction: higher = more nuclear SOX9
Structure (SMILES)	nuclear SOX9 intensity
CCN(C(=O)CO)[C@H]1CN(/C(=N\C#N)Nc2cccc(OC(F)F)c2)N=C1c1ccc(Cl)c(Cl)c1	132 % of DMSO
CC(C(=O)O)c1cccc(Oc2ccccc2)c1 (stereo not shown)	94.8 % of DMSO and 92.8 % of DMSO
Cc1scc2c1N(C(=O)CN1CCN(C)CC1)c1ccccc1NC2=O	103 % of DMSO
COc1ccc(C2(CNC(=O)c3ccc(NC(=O)c4ccco4)cc3)CCOCC2)cc1	86.8 % of DMSO
CC(C)(Oc1ccc(C2CC2(Cl)Cl)cc1)C(=O)O (stereo not shown)	99.5 % of DMSO
CCN(CC)CC(=O)Nc1c(C)cccc1C	106 % of DMSO
CCCOc1ccn2c(C(C)=O)cc(-c3ccccc3S(C)(=O)=O)c2c1	108 % of DMSO
OC(c1ccccc1)C1CCN(CCc2ccccc2)CC1 (stereo not shown)	114 % of DMSO
CCCC(CCC)C(=O)O	89.5 % of DMSO and 87.4 % of DMSO and 102 % of DMSO
S=P(N1CC1)(N1CC1)N1CC1	107 % of DMSO

Series 3 — read-out: enzyme activity; action: inhibitor; concentration: 0.5 µM; reference: control
SMILES: NC(=O)c1ccc(N(C(N)=O)c2c(F)cccc2F)nc1-c1ccc(F)cc1F
target	remaining activity
Protein-tyrosine kinase 2-beta (PTK2B, Homo sapiens, UniProt Q14289)	102%
Calcium/calmodulin-dependent protein kinase type 1D (CAMK1D, Homo sapiens, UniProt Q8IU85)	114%
Cyclin-dependent kinase 7 (CDK7, Homo sapiens, UniProt P50613)	102%
Mitogen-activated protein kinase 10 (MAPK10, Homo sapiens, UniProt P53779)	98.4%
Dual specificity tyrosine-phosphorylation-regulated kinase 4 (DYRK4, Homo sapiens, UniProt Q9NR20)	96.3%
Cyclin-dependent kinase 2, with cyclin A (CDK2, Homo sapiens, UniProt P24941)	87.8%
Mitogen-activated protein kinase kinase kinase 2 (MAP3K2, Homo sapiens, UniProt Q9Y2U5)	122%
Epidermal growth factor receptor (EGFR, Homo sapiens, UniProt P00533)	92.7%
STE20-like serine/threonine-protein kinase (SLK, Homo sapiens, UniProt Q9H2G2)	90.7%
G protein-coupled receptor kinase 5 (GRK5, Homo sapiens, UniProt P34947)	103%
Homeodomain-interacting protein kinase 3 (HIPK3, Homo sapiens, UniProt Q9H422)	98.4%
Serine/threonine-protein kinase Nek9 (NEK9, Homo sapiens, UniProt Q8TD19)	104%

Series 4 — matrix: hydrocarbon/water
SMILES	logD
CC(C)C[C@@H]1NC(=O)[C@H](C)N(C)C(=O)[C@H](CC2CCCCC2)NC(=O)CN(CC(C)C)C(=O)[C@H]2CCCN2C(=O)[C@H](CC2CCCCC2)NC(=O)[C@H](C)N(C)C(=O)[C@H](CC(C)C)NC(=O)Cn2cc(nn2)CN(C)C1=O	2.36
CCN1CC(=O)N[C@@H](CC(C)C)C(=O)N(C)[C@@H](C)C(=O)N[C@@H](CC(C)C)C(=O)N(C)Cc2cn(nn2)CC(=O)N[C@@H](CC(C)C)C(=O)N(C)[C@@H](C)C(=O)N[C@@H](CC(C)C)C(=O)N2CCC[C@@H]2C1=O	-0.632
CCN1CC(=O)N[C@@H](CC2CCCCC2)C(=O)N(C)[C@@H](C)C(=O)N[C@@H](CC(C)C)C(=O)N(C)Cc2cn(nn2)CC(=O)N[C@@H](CC(C)C)C(=O)N(C)[C@@H](C)C(=O)N[C@@H](CC(C)C)C(=O)N2CCC[C@@H]2C1=O	0.597
CC[C@@H]1C(=O)N(C)[C@@H](CC)C(=O)N[C@@H](CC(C)C)C(=O)N2CCC[C@@H]2C(=O)N(C)[C@@H](Cc2ccccc2)C(=O)N[C@@H](CC(C)C)C(=O)N1C	2.11
CCC[C@@H]1NC(=O)[C@H](C)N(C)C(=O)[C@H](CC(C)C)NC(=O)CSC[C@@H](C(=O)OCC)N(C)C(=O)[C@H](CC(C)C)NC(=O)[C@H](C)N(C)C(=O)[C@H](CC2CCCCC2)NC(=O)[C@H](CC)N(C)C(=O)[C@H]2CCCN2C1=O	3.04
CCC[C@@H]1NC(=O)[C@H](C)N(C)C(=O)[C@H](CC(C)C)NC(=O)Cn2cc(nn2)CN(C)C(=O)[C@H](CC(C)C)NC(=O)[C@H](C)N(C)C(=O)[C@H](CC2CCCCC2)NC(=O)CN(CCC)C(=O)[C@H]2CCCN2C1=O	0.714
